{"data": "Measurements from different studies", "note": "Every numbered part comes from another study and shows a few of its results, in no order. Positions count from the first letter of the parent shown.", "sequence of UniProt Q712K3 (whole entry, looked up)": "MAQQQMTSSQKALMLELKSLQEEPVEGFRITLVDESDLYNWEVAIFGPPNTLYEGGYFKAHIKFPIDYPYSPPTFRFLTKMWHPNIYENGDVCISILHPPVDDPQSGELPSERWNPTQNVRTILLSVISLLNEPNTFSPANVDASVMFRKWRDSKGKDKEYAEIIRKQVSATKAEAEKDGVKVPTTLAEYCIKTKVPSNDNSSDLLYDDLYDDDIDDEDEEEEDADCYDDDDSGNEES", "sequence of UniProt Q9C0C9 (whole entry, looked up)": "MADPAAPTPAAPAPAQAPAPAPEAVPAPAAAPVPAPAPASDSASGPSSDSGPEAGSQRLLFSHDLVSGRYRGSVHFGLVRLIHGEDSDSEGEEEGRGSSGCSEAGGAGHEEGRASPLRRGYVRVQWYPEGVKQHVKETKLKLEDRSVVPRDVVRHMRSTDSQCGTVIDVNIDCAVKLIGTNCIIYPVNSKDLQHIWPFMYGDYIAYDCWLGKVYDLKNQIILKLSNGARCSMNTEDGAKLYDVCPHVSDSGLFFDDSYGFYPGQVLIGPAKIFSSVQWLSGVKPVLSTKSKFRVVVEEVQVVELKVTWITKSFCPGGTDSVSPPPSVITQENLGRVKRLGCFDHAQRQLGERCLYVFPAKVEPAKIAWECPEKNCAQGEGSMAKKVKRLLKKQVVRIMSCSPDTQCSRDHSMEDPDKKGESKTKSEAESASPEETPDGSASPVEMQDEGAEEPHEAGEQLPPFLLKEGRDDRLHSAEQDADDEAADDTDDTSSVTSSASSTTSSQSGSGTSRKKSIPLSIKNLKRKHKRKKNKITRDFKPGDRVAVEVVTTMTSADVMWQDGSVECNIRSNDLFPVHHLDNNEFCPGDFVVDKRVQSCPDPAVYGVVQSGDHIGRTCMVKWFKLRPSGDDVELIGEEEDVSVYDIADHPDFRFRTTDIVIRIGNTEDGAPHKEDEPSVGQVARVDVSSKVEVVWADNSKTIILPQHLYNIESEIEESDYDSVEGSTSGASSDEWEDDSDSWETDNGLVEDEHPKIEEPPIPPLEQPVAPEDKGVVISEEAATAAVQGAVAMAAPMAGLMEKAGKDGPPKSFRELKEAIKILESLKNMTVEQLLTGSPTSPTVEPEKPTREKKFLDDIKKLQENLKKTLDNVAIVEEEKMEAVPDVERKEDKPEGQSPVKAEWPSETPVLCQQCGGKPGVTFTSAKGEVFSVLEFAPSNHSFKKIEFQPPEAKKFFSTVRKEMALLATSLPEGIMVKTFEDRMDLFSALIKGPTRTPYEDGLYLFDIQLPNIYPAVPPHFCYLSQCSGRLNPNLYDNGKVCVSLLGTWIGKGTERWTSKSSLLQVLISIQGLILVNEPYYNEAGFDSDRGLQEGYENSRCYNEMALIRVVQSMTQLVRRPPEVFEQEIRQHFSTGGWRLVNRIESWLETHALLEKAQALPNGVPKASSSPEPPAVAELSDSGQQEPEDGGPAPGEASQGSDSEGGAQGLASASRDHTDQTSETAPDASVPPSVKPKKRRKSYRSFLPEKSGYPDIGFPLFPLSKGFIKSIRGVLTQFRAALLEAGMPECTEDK", "sequence of UniProt Q9NPD8 (whole entry, looked up)": "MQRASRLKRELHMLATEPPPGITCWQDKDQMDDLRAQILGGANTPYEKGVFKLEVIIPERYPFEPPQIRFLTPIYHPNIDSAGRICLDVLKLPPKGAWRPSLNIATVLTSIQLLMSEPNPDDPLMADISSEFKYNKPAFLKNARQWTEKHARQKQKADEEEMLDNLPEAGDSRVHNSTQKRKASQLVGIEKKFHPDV", "sequence of UniProt Q9Y385 (whole entry, looked up)": "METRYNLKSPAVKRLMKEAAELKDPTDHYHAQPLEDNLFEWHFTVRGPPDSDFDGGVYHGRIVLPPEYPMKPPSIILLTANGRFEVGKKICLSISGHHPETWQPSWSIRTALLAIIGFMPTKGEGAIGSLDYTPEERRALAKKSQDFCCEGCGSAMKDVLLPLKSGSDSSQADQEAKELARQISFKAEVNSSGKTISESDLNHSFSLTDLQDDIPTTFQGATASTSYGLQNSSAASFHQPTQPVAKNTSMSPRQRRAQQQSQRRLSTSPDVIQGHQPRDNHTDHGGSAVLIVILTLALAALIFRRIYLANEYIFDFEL", "sequence of UniProt Q9H832 (whole entry, looked up)": "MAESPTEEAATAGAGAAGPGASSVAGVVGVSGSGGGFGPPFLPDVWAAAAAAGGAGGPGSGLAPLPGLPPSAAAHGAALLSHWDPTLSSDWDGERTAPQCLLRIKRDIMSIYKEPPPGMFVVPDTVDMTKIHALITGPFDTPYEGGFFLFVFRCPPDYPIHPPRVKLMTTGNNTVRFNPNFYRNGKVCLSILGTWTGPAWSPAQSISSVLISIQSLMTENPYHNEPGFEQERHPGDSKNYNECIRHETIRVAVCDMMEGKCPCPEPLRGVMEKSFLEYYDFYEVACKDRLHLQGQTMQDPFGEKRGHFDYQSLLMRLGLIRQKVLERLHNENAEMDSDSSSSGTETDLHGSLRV", "sequence of UniProt P63146 (whole entry, looked up)": "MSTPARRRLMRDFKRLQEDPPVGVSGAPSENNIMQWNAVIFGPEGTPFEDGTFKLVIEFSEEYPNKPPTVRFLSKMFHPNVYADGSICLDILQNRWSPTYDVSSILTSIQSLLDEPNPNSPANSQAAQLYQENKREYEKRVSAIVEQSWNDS", "sequence of UniProt P51668 (whole entry, looked up)": "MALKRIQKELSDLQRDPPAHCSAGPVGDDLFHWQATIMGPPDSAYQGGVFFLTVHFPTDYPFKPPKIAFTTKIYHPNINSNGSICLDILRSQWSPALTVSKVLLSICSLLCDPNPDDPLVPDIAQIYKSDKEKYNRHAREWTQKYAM"}
{"data": "Set 1", "target": "Ras GTPase-activating protein-binding protein 1, full length (G3BP1, Homo sapiens, UniProt Q13283)", "technique": "RNA Bind-n-Seq", "form": "RNA", "matrix": "in vitro", "concentration": "200 nM", "setting": "whole 134-nt RNA, ends assumed", "together with": "150 mM KCl", "reference": "input library", "direction": "higher = stronger binding", "all sequences stand within": "GGGAGUUCUACAGUCCGACGAUC … UGGAAUUCUCGGGUGUCAAGG", "sequence of UniProt Q13283 (whole entry, looked up)": "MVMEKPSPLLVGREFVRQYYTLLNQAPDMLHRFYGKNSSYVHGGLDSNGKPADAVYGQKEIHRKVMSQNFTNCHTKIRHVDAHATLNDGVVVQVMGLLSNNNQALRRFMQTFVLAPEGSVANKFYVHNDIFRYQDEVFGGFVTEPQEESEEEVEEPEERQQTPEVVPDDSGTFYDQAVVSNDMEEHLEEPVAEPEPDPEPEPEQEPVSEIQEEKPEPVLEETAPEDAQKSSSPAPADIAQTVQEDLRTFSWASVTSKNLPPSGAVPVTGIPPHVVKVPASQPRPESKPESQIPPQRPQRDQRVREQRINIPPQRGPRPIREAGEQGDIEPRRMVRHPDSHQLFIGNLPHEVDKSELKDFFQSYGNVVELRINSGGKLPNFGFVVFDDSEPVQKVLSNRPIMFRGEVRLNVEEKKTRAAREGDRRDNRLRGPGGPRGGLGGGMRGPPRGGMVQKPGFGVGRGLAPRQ"}
{"Sequence": "UUGAAAGAAUUUGCCAACUUUGACUUUGAUGUCUGGAGGAAAAAGUAUAUGCGUUGGAUGAAUCACAAAAAGUCUCGAGUGAUGGAUUUC", "log2 enrichment": -1.8}
{"Sequence": "CACAGACAACACGCACCCACACAGACACAGAGGGAAGGAGUUGGGAUGGGGACAGGGUGCACAGCAGGGCGGGGUAGGACCCCAGCCCCU", "log2 enrichment": 1.67}
{"Sequence": "AAGUCCUGUGCUACACAUCGUAUGUACCGAAUCGGAAAAAAAGGUUUUUUUGGAGGAAAGUAUUAUGUUACGCCGUUCGGAUCUGCACUU", "log2 enrichment": -1.71}
{"Sequence": "UCAAGUCCUGUGCUACACAUCGUAUGUACCGAAUCGGUUUUUUUGGUGGAAAGGAAAGUAUUAUGUUACGCCGUUCGGAUCUGCACUUCC", "log2 enrichment": -0.911}
{"Sequence": "AGUCCUGUGCUACACAUCGUAUGUACCGAAUCGGCCCCGGGGCCCCGGGCCCCGGGGAAAGUAUUAUGUUACGCCGUUCGGAUCUGCACU", "log2 enrichment": -1.21}
{"Sequence": "UUCAUGAGGACCUCCGCCUGCUCUUGGAGACCCACCUGCCGUCCAAAAAGAAGAAAGUACUCUUGGGAGUUGGGGAUCCCAAGAUUGGUG", "log2 enrichment": 0.0399}
{"Sequence": "UCAAGUCCUGUGCUACACAUCGUAUGUACCGAAUCGGGUUGGGUUGGGUUGGGGAAAGUAUUAUGUUACGCCGUUCGGAUCUGCACUUCC", "log2 enrichment": 1.35}
{"Sequence": "CCUGUGCUACACAUCGUAUGUACCGAAUCAAACCCCCAAAUUUUUUUAAAUUUUUUUAAAAAAGUAUUAUGUUACGCCGUUCGGAUCUGC", "log2 enrichment": 0.217}
{"Sequence": "UAACUUUAGAGGAGGAUCUGAUGGAUAUGGCAGUGGACGUGGAUUUGGGGAUGGCUAUAAUGGGUAUGGAGGAGGACCAGGAGGUGGCAA", "log2 enrichment": 0.18}
{"Sequence": "UGGGAGGUGGAUUUUGUUUAUUUUUUUAGCUCAUUUCCAGGGGUGGGAAUUUUUUUUUAAUAUGUGUCAUUAAUAAAGUUGUUUUUGAAA", "log2 enrichment": 0.24}
{"Sequence": "CUCAACGUUGACAGUAAUGAACAAGGCUCCUAUGUAGUGGCCAUGGAAACCUUUACCAACUUAGGACCCAUUGUCGAUAUGUGCGUGGUG", "log2 enrichment": -0.539}
{"Sequence": "ACCAUGCAGGUGGGCAUCUUUGGGAAGUGGGGCAAGGGGGGGAUAGGGAGGGGGGUAACAAAAUGGGAACAGGUGGUCCCAGGUCGUUUC", "log2 enrichment": 1.11}
{"Sequence": "UCCUCAAGUCCUGUGCUACACAUCGUAUGUACCGAAUCGGUUGGUUGGUUGGAAAGUAUUAUGUUACGCCGUUCGGAUCUGCACUUCCAG", "log2 enrichment": 0.0473}
{"Sequence": "AGUCCUGUGCUACACAUCGUAUGUACCGAAUCGGGAAAAAAAGGGAAAAAGGGAGGGAAAGUAUUAUGUUACGCCGUUCGGAUCUGCACU", "log2 enrichment": 0.0563}
{"data": "Set 2", "target": "CREB3, bZIP domain (human)", "technique": "DHFR protein complementation", "matrix": "yeast", "setting": "single substitutions, most at no-binding floor", "reference": "wild-type JUN-FOS pair", "direction": "higher = stronger binding", "starting sequence": "JUN, bZIP domain (human); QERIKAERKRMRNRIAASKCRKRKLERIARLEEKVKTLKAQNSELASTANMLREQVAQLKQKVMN; partner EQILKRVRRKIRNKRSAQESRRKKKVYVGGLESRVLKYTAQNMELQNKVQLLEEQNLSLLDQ"}
{"Variant": "K34V", "binding fitness": "-1.5 natural log"}
{"Variant": "T37P", "binding fitness": "-1.53 natural log"}
{"Variant": "Q55T", "binding fitness": "-1.57 natural log"}
{"Variant": "L45T", "binding fitness": "-1.42 natural log"}
{"Variant": "K39I", "binding fitness": "-1.57 natural log"}
{"Variant": "I28N", "binding fitness": "-1.37 natural log"}
{"Variant": "M51D", "binding fitness": "-1.53 natural log"}
{"Variant": "K34G", "binding fitness": "-1.4 natural log"}
{"Variant": "E33F", "binding fitness": "-1.34 natural log"}
{"Variant": "I28T", "binding fitness": "-1.36 natural log"}
{"Variant": "R53Q", "binding fitness": "-1.45 natural log"}
{"Variant": "Q41F", "binding fitness": "-1.5 natural log"}
{"Variant": "K34F", "binding fitness": "-1.59 natural log"}
{"Variant": "Q41G", "binding fitness": "-1.52 natural log"}
{"Variant": "K36R", "binding fitness": "-1.41 natural log"}
{"Variant": "M51I", "binding fitness": "-1.26 natural log"}
{"Variant": "L52H", "binding fitness": "-1.53 natural log"}
{"Variant": "A49F", "binding fitness": "-1.47 natural log"}
{"Variant": "A49D", "binding fitness": "-1.49 natural log"}
{"Variant": "Q58P", "binding fitness": "-1.42 natural log"}
{"Variant": "S43F", "binding fitness": "-1.27 natural log"}
{"Variant": "E44V", "binding fitness": "-1.46 natural log"}
{"Variant": "N42W", "binding fitness": "-1.56 natural log"}
{"Variant": "E32S", "binding fitness": "-1.49 natural log"}
{"Variant": "T48A", "binding fitness": "-1.47 natural log"}
{"data": "Set 3", "target": "CCND1, cyclin fold, Cln2 fusion (human)", "technique": "yeast growth competition, sequencing", "matrix": "yeast", "setting": "strong parent motif", "reference": "not given", "direction": "higher = stronger binding", "starting sequence": "RBL1 docking peptide (human); GSAKRRLFGEDPP"}
{"Variant": "GSAKYRLFGEDPP [R5Y]", "normalised enrichment score": 1.11}
{"Variant": "GSAKMRLFGEDPP [R5M]", "normalised enrichment score": 1.44}
{"Variant": "GSAKRPLFGEDPP [R6P]", "normalised enrichment score": 0.502}
{"Variant": "GSAKRRLCGEDPP [F8C]", "normalised enrichment score": 0.39}
{"Variant": "GSAKHRLFGEDPP [R5H]", "normalised enrichment score": 0.622}
{"Variant": "ASAKRRLFGEDPP [G1A]", "normalised enrichment score": 2.04}
{"Variant": "GSAKGRLFGEDPP [R5G]", "normalised enrichment score": 0.464}
{"Variant": "GSTKRRLFGEDPP [A3T]", "normalised enrichment score": 1.08}
{"Variant": "TSAKRRLFGEDPP [G1T]", "normalised enrichment score": 2.3}
{"Variant": "GSAKRRLFGEDDP [P12D]", "normalised enrichment score": 2.58}
{"Variant": "GSAKRRLFGGDPP [E10G]", "normalised enrichment score": 0.9}
{"Variant": "GSYKRRLFGEDPP [A3Y]", "normalised enrichment score": -0.0327}
{"Variant": "GSAKRRLFGLDPP [E10L]", "normalised enrichment score": 0.68}
{"Variant": "GSAKRRLFTEDPP [G9T]", "normalised enrichment score": 3.09}
{"Variant": "GSAKRRLFGEGPP [D11G]", "normalised enrichment score": 1.13}
{"Variant": "GSAKRRLFLEDPP [G9L]", "normalised enrichment score": 2.88}
{"Variant": "GSAKRRLFQEDPP [G9Q]", "normalised enrichment score": 3}
{"Variant": "GSAIRRLFGEDPP [K4I]", "normalised enrichment score": 2.93}
{"Variant": "GSAKRRLFGEDGP [P12G]", "normalised enrichment score": 1.51}
{"Variant": "GFAKRRLFGEDPP [S2F]", "normalised enrichment score": 0.416}
{"Variant": "WSAKRRLFGEDPP [G1W]", "normalised enrichment score": 1.86}
{"Variant": "GSPKRRLFGEDPP [A3P]", "normalised enrichment score": 0.818}
{"data": "Set 4", "Sequence": "B1 (ARIH1 RING domain)", "technique": "yeast two-hybrid", "matrix": "yeast", "setting": "mostly zero background", "reference": "not given", "direction": "higher = stronger interaction", "B1": "ARIH1 RING domain (UniProt Q9Y4X5); chain NTRSSAQDMPCQICYLNYPNSYFTGLECGHKFCMQCWSEYLTTKIMEEGMGQTISCPAHGCDILVDDNTVM"}
{"target": "UBE2O UBC core domain (UniProt Q9C0C9)", "lacZ reporter activity": 0}
{"target": "UBE2Z UBC core domain (UniProt Q9H832)", "lacZ reporter activity": 0}
{"target": "UBE2I UBC core domain (UniProt P63279)", "lacZ reporter activity": 0}
{"target": "UBE2J1 UBC core domain (UniProt Q9Y385)", "lacZ reporter activity": 0}
{"target": "UBE2T UBC core domain (UniProt Q9NPD8)", "lacZ reporter activity": 0}
{"target": "UBE2R2 UBC core domain (UniProt Q712K3)", "lacZ reporter activity": 0}
{"target": "UBE2B UBC core domain (UniProt P63146)", "lacZ reporter activity": 0}
{"target": "BIRC6 UBC core domain (UniProt Q9NR09)", "lacZ reporter activity": 0}
{"target": "UBE2D1 UBC core domain (UniProt P51668)", "lacZ reporter activity": 0}
{"data": "Set 5", "target": "ABI1, truncated, D143A, DHFR fusion (Arabidopsis thaliana)", "technique": "DHFR PCA, deep sequencing", "matrix": "yeast", "setting": "methotrexate growth selection, single substitutions", "together with": "(+)-ABA 710 µM", "reference": "wild-type fitted maximum", "direction": "higher = stronger binding", "starting sequence": "PYL1, truncated, DHFR fusion (Arabidopsis thaliana); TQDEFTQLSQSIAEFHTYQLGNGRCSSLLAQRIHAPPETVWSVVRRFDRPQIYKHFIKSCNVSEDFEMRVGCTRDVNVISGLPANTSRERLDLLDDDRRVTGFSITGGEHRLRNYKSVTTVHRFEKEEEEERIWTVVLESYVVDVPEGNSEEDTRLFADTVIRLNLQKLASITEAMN"}
{"Variant": "C60T", "relative binding score": "98.3%"}
{"Variant": "G21Q", "relative binding score": "97.6%"}
{"Variant": "R113E", "relative binding score": "106%"}
{"Variant": "T17G", "relative binding score": "91.9%"}
{"Variant": "L112G", "relative binding score": "-1.75%"}
{"Variant": "W41P", "relative binding score": "9.22%"}
{"Variant": "E128C", "relative binding score": "109%"}
{"Variant": "I12G", "relative binding score": "64%"}
{"Variant": "Q19I", "relative binding score": "102%"}
{"Variant": "F157H", "relative binding score": "28.3%"}
{"Variant": "A170N", "relative binding score": "79.6%"}
{"Variant": "S80T", "relative binding score": "95.9%"}
{"Variant": "E131Q", "relative binding score": "110%"}
{"Variant": "I79L", "relative binding score": "89.3%"}
{"Variant": "P36N", "relative binding score": "102%"}
{"Variant": "A84V", "relative binding score": "31.4%"}
{"Variant": "D48N", "relative binding score": "94.6%"}
{"Variant": "V76I", "relative binding score": "108%"}
{"Variant": "R123C", "relative binding score": "99%"}
{"Variant": "R74N", "relative binding score": "-8.73%"}
{"Variant": "G107W", "relative binding score": "60.5%"}
{"Variant": "R111D", "relative binding score": "53.3%"}
{"Variant": "E89N", "relative binding score": "-10.2%"}
{"note": "A few entries again (set 3):"}
{"Variant": "GSAKHRLFGEDPP [R5H]", "normalised enrichment score": 0.622}
{"Variant": "GSAKYRLFGEDPP [R5Y]", "normalised enrichment score": 1.11}
{"Variant": "GFAKRRLFGEDPP [S2F]", "normalised enrichment score": 0.416}
{"Variant": "GSAKRRLFGEDGP [P12G]", "normalised enrichment score": 1.51}
{"Variant": "GSYKRRLFGEDPP [A3Y]", "normalised enrichment score": -0.0327}
{"Variant": "GSAIRRLFGEDPP [K4I]", "normalised enrichment score": 2.93}
{"Variant": "GSAKRRLFQEDPP [G9Q]", "normalised enrichment score": 3}
